{"data": "Assay results from different studies", "note": "Each line is one published result; not all experiments were run side by side. “And” joins repeats or separate records; there may be more than shown. ± gives the spread as reported."}
{"Molecule": "CN[C@@](C)(C[18F])C(=O)O", "tested on": "SK-OV-3 tumour model", "test system": "host not given, lung", "setting": "1 h, tumour-bearing", "measurement": "tracer uptake", "result": "1.3 %ID/g"}
{"Molecule": "COCC(=O)[C@H]1C(C)(C)CCC[C@]1(C)C1=C(O)C(=O)C(C(C)C)=CC1=O", "tested on": "Leishmania amazonensis", "assay": "parasite growth", "test system": "mouse Peritoneal macrophage", "setting": "72 h, intracellular, amastigote", "measurement": "IC50", "result": "0.52 µg/mL"}
{"Molecule": "C[C@H](Cn1cnc2c(N)ncnc21)OCP(=O)(O)O", "tested on": "human alphaherpesvirus 2", "assay": "virus production", "test system": "human monocytes/macrophages", "setting": "20 µg/mL, 6 days", "measurement": "inhibition", "result": "96%"}
{"Molecule": "CSCC[C@H](NC(=O)[C@H](Cc1ccccc1)NC(=O)[C@H](Cc1c[nH]c2ccccc12)NC(=O)[C@H](CCC(=O)O)NC(=O)[C@H](CCCNC(=N)N)NC(=O)[C@H](Cc1c[nH]cn1)NC(=O)[C@@H](NC(=O)[C@H](CC(C)C)NC(=O)[C@H](Cc1ccccc1)NC(=O)[C@@H](N)[C@@H](C)O)C(C)C)C(=O)N[C@@H](CC(=O)O)C(=O)N[C@@H](CC(C)C)C(=O)N[C@@H](CC(N)=O)C(=O)N[C@@H](CC(C)C)C(=O)N1CCC[C@H]1C(=O)N[C@@H](Cc1c[nH]c2ccccc12)C(=O)N[C@@H](CO)C(=O)N[C@@H](CO)C(=O)N[C@@H](C)C(=O)NCC(=O)N[C@@H](CO)C(=O)N[C@H](C(=O)N[C@H](C(=O)N[C@@H](Cc1c[nH]c2ccccc12)C(=O)N[C@@H](CCCNC(=N)N)C(=O)O)C(C)C)[C@@H](C)O", "tested on": "West Nile virus", "assay": "viral replication, plaque reduction", "test system": "LLC-MK2, Egypt 101", "measurement": "IC50", "result": "~10 µM"}
{"Molecule": "O=Cc1cn(Cc2ccccc2)c2ccc([N+](=O)[O-])cc12", "tested on": "Trypanosoma congolense", "test system": "trypomastigotes, IL3000", "measurement": "IC50", "result": "> 89 µM"}
{"Molecule": "meglumine antimoniate", "tested on": "Leishmania infantum", "setting": "intracellular amastigotes", "measurement": "IC50", "result": "24.2 ± 2.6 µM"}
{"Molecule": "CCC(=O)Nc1cc(Nc2cc(NC3CC3)n3ncc(C#N)c3n2)ccc1N(C)CCN", "tested on": "murine hepatitis virus", "assay": "viral replication, nanoluciferase reporter", "test system": "DBT", "setting": "10 h", "measurement": "IC50", "result": "0.1 µM"}
{"Molecule": "CC(C)C[C@H](NC(=O)[C@H](Cc1ccccc1)NC(=O)c1cnccn1)B(O)O", "tested on": "Babesia divergens", "assay": "parasite growth", "test system": "bovine erythrocyte culture", "setting": "48 h, starting parasitemia 2%", "measurement": "IC50", "result": "0.047 ± 0.009 µM"}
{"Molecule": "OCC1CC(n2cnc3c(SCc4ccccc4Cl)ncnc32)C(O)C1O (stereo not drawn)", "tested on": "Toxoplasma gondii", "assay": "parasite growth, radiolabelled uracil incorporation", "test system": "RH wild type, tissue culture", "measurement": "IC50", "result": "20 ± 2.3 µM"}
{"Molecule": "CCCC[C@H]1C(=O)O[C@H](C)[C@H](NC(=O)c2cccc(NC=O)c2O)C(=O)O[C@@H](C)[C@@H]1OC(=O)CC(C)C", "tested on": "Wickerhamomyces anomalus", "assay": "O2 uptake, inhibitor", "test system": "mitochondria", "setting": "added: duroquinol 1 mM", "measurement": "IC50", "result": "0.027 µM"}
{"Molecule": "OCC1CC(n2cnc3c(SCc4ccccc4F)ncnc32)C(O)C1O (stereo not drawn)", "tested on": "Toxoplasma gondii", "assay": "parasite growth, radiolabelled uracil incorporation", "test system": "RH wild type, tissue culture", "measurement": "IC50", "result": "38.9 ± 15.6 µM"}
{"Molecule": "O=Cc1cn(Cc2cccc(Cl)c2)c2ccc([N+](=O)[O-])cc12", "tested on": "Trypanosoma equiperdum", "test system": "trypomastigotes, IVM-t1", "measurement": "IC50", "result": "> 79 µM"}
{"Molecule": "C=CC(C)(C)c1cc2cc3c(cc2oc1=O)OC(C(C)(C)OC(C)=O)C3 (stereo not drawn)", "tested on": "human rhinovirus 2", "assay": "cytopathic effect", "test system": "HeLa", "setting": "72 h", "measurement": "IC50", "result": "toxic"}
{"Molecule": "CCCCCc1cc(O)c2c(c1)OC(C)(C)[C@@H]1CCC(C)=C[C@@H]21", "assay": "drug discrimination", "test system": "C57BL/6J mice, female", "setting": "intraperitoneal, 30 min pretreatment", "measurement": "ED50", "result": "1.96 mg/kg"}
{"Molecule": "CC(=O)Nc1ccc2ccn(-c3cc(NC4CCN(C(C)=O)CC4)n4ncc(C#N)c4n3)c2c1", "tested on": "murine hepatitis virus", "assay": "viral replication, nanoluciferase reporter", "test system": "DBT", "setting": "10 h", "measurement": "IC50", "result": "3.98 µM"}
{"Molecule": "O=C(O)C(=O)CBr", "tested on": "Leishmania infantum", "assay": "infected macrophages", "test system": "U-937 macrophages", "setting": "48 h", "measurement": "IC50", "result": "> 75 µM"}
{"Molecule": "CO/C(=C/C(N)=O)[C@H](C)[C@H](/C=C/c1csc(-c2csc([C@@H](C)/C=C/C=C/C(C)C)n2)n1)OC", "tested on": "Wickerhamomyces anomalus", "assay": "O2 uptake, inhibitor", "test system": "mitochondria", "setting": "added: glycerol 3-phosphate 20 mM", "measurement": "IC50", "result": "0.067 µM"}
{"Molecule": "N#CSCCOc1cccc(Oc2cccc(Cl)c2)c1", "tested on": "Toxoplasma gondii", "test system": "tachyzoites", "measurement": "IC50", "result": "> 10 µM"}
{"Molecule": "CC[C@H](C)[C@H](NC(=O)[C@H](CC(C)C)NC(=O)[C@H](Cc1c[nH]cn1)NC(=O)[C@H](Cc1c[nH]cn1)NC(=O)[C@@H](NC(=O)[C@H](Cc1ccccc1)NC(=O)[C@H](Cc1c[nH]cn1)NC(=O)[C@H](Cc1c[nH]c2ccccc12)NC(=O)[C@@H](NC(=O)[C@H](Cc1c[nH]cn1)NC(=O)[C@H](Cc1c[nH]cn1)NC(=O)[C@H](Cc1c[nH]c2ccccc12)NC(=O)[C@@H](N)CC(C)C)[C@@H](C)CC)C(C)C)C(N)=O", "tested on": "Herpes simplex virus 1", "assay": "viral attachment, plaque reduction", "test system": "Vero, F", "setting": "1 h, 4 °C", "measurement": "IC50", "result": "0.67 µg/mL"}
{"Molecule": "OCC1CC(n2cnc3c(SCc4ccc(Br)cc4)ncnc32)C(O)C1O (stereo not drawn)", "tested on": "Toxoplasma gondii", "assay": "parasite growth, radiolabelled uracil incorporation", "test system": "RH wild type, tissue culture", "measurement": "IC50", "result": "18.3 ± 1.3 µM"}
{"Molecule": "CCCCCCCCCCCCCC#CC(=O)O", "tested on": "Trypanosoma brucei rhodesiense", "test system": "STIB900 bloodstream form", "setting": "72 h", "measurement": "IC50", "result": "21.1 µg/mL"}
{"Molecule": "CC[C@H](C)[C@H](NC(=O)[C@H](C)NC(=O)[C@H](C)NC(=O)[C@H](CC(N)=O)NC(=O)[C@H](C)NC(=O)[C@H](C)NC(=O)[C@H](C)NC(=O)[C@H](CCCNC(=N)N)NC(=O)[C@H](CC(C)C)NC(=O)[C@@H](NC(=O)[C@H](CCC(=O)O)NC(=O)[C@@H]1CCCN1C(=O)CNC(=O)[C@H](CCCCN)NC(=O)[C@H](CCC(=O)O)NC(=O)[C@H](CCCCN)NC(=O)[C@@H](NC(=O)[C@H](Cc1ccccc1)NC(=O)[C@H](CC(=O)O)NC(=O)[C@H](CCCCN)NC(=O)[C@H](C)NC(=O)[C@H](CCCCN)NC(=O)[C@H](CC(N)=O)NC(=O)[C@H](CC(C)C)NC(=O)[C@H](Cc1c[nH]c2ccccc12)NC(=O)[C@H](CC(=O)O)NC(=O)[C@H](CCCCN)NC(=O)[C@H](Cc1c[nH]c2ccccc12)NC(=O)CN)[C@@H](C)CC)[C@@H](C)CC)C(=O)N[C@@H](CC(N)=O)C(=O)O", "tested on": "Haemonchus contortus", "assay": "larval development", "test system": "Kirby isolate", "setting": "6 days, 26 °C", "measurement": "IC50", "result": "5.6 µM and < 6 µM"}
{"Molecule": "CC(=O)Nc1ccc2ccn(-c3cc(NC45CC(C4)C5)n4ncc(C#N)c4n3)c2c1", "tested on": "murine hepatitis virus", "assay": "viral replication, nanoluciferase reporter", "test system": "DBT", "setting": "10 h", "measurement": "IC50", "result": "6.31 µM"}
{"Molecule": "O=Cc1cn(Cc2ccc(F)cc2)c2ccc([N+](=O)[O-])cc12", "tested on": "Leishmania major", "assay": "parasite growth, resazurin", "test system": "THP-1", "setting": "24 h, intracellular, amastigote", "measurement": "IC50", "result": "13.1 µM"}
{"Molecule": "C/C=C1/C[N+]2(C)CC[C@@]34C[C@H]5[C@@H]6C[C@H]7c8c(c9ccccc9n8C)C[C@@H]([C@@H]6CO[C@@]5(C)O[C@@]35[C@@H]2C[C@@H]1[C@@H](C(=O)OC)N5c1ccccc14)N7C (stereo partly drawn)", "tested on": "Leishmania mexicana", "assay": "parasite growth, flow cytometry", "setting": "promastigote", "measurement": "IC50", "result": "78 µM"}
{"Molecule": "Cc1ccc(Cn2cc(C=O)c3cc([N+](=O)[O-])ccc32)cc1", "tested on": "Leishmania major", "assay": "parasite growth, resazurin", "test system": "THP-1", "setting": "72 h, intracellular, amastigote", "measurement": "IC50", "result": "> 10 µM"}
{"Molecule": "CC(C)c1ccc2c(c1)CC[C@H]1[C@](C)(CN)CCC[C@]21C", "tested on": "SK-MEL-24", "assay": "cell growth or viability, MTS", "setting": "24 h", "measurement": "IC50", "result": "1.97 µM"}
{"Molecule": "C[C@H]1N[C@@H](CCCCCCCCCCC2=C[C@@H](CCCCCCCCCC[C@H]3CC[C@@H](O)[C@@H](C)N3)[C@@H]3CCCN3C2)CC[C@H]1O", "tested on": "Leishmania donovani", "assay": "parasite growth, resazurin", "setting": "72 h, amastigote", "measurement": "IC50", "result": "2 µg/mL"}
{"Molecule": "CN1CCCN2CCN(CCCN(Cc3ccccc3)CC2)CC1", "tested on": "Leishmania donovani", "assay": "parasite growth, resazurin", "setting": "72 h, amastigote", "measurement": "IC50", "result": "> 20 µM"}
{"Molecule": "C/C(=C\\Cc1c(O)c(Cl)c(C)c(C=O)c1O)CC/C=C(\\C)[C@@H]1CC(=O)C(C)(C)O1", "tested on": "Wickerhamomyces anomalus", "assay": "O2 uptake, inhibitor", "test system": "mitochondria", "setting": "added: NADH 1 mM", "measurement": "IC50", "result": "68.5 µM"}
{"Molecule": "CNC(C)Cc1ccc2c(c1)OCO2 (racemic)", "assay": "visual analog scale, measured: Friendly", "test system": "human", "setting": "oral, 1.5 mg/kg, mean over session, unit not given", "how to read": "baseline: pre-dose baseline", "measurement": "mood rating", "result": 17.8}
{"Molecule": "N#Cc1ccc(-c2ccc(-c3cccs3)s2)cc1F", "tested on": "Salmonella enterica", "test system": "TA1535", "setting": "10 µM, 48 h, added: sodium azide co-exposure", "how to read": "baseline: sodium azide alone", "measurement": "mutant frequency", "result": "25%"}
{"Molecule": "CCC(=O)Nc1cc(Nc2cc(NC3CC3)n3ncc(C#N)c3n2)ccc1N1CCNCC1", "tested on": "murine hepatitis virus", "assay": "viral replication, nanoluciferase reporter", "test system": "DBT", "setting": "10 h", "measurement": "IC50", "result": "2 µM"}
{"Molecule": "N=C(N)c1ccc(OCCCCCOc2ccc(C(=N)N)cc2)cc1", "tested on": "human papillomavirus 16", "assay": "pseudovirus infection, inhibitor", "test system": "293FT", "setting": "pseudovirus", "measurement": "IC50", "result": "≤ 0.002 µM"}
{"Molecule": "N=C(N)c1ccc(-c2ccc(-c3ccco3)o2)cc1F", "tested on": "Salmonella enterica", "test system": "TA1535", "setting": "10 µM, 48 h, added: sodium azide co-exposure", "how to read": "baseline: sodium azide alone", "measurement": "mutant frequency", "result": "19%"}
{"Molecule": "C=C(C)[C@H]1Cc2c(ccc3c2O[C@@H]2COc4cc(OC)c(OC)cc4[C@@H]2C3=O)O1", "tested on": "Plasmodium yoelii", "assay": "oxygen consumption", "test system": "17XL, infected red blood cells", "measurement": "IC50", "result": "> 2.5 µM"}
